Published values from different studies.
A part holds a random share of what one study measured. Positions count from the first letter of the parent shown.

Study 1
Target: CCNB2, cyclin fold, Cln2 fusion (human)
Method: yeast growth competition, sequencing
Matrix: yeast
Notes: weak parent motif
Baseline: not given
Reading: higher = stronger binding
Measurement: normalised enrichment score
Parent: SCAPER docking peptide (human); SNARRSLNFGGST; partner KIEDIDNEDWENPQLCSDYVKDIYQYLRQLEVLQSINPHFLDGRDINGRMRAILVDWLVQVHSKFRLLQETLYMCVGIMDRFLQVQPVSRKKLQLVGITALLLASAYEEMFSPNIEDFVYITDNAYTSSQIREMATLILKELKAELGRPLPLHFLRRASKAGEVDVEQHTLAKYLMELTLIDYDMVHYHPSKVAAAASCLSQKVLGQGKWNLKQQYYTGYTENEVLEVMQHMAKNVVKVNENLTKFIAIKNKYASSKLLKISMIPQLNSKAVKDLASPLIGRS
G10N: 0.161
F9W: 1.17
S6D: -0.0461
S1L: -0.0641
F9L: 0.0646
S12L: 0.394
S6V: 0.0746
F9R: 0.466
F9V: 0.00196
A3V: 0.21
N2R: 0.671
N2Q: 0.222
F9I: 0.248
G10V: -0.788
G10I: 0.039
S12P: 0.515
L7G: 0.0415
S6H: 0.476
G11C: 0.167
L7R: 0.16
R5I: 0.235
S1E: -0.643
R4W: 0.267
N2K: 0.262

Study 2
Target: ABI1, truncated, D143A, DHFR fusion (Arabidopsis thaliana)
Method: DHFR PCA, deep sequencing
Matrix: yeast
Notes: methotrexate growth selection, single substitutions
With: (+)-ABA 710 µM
Baseline: wild-type fitted maximum
Reading: higher = stronger binding
Measurement: relative binding score
Parent: PYL1, truncated, DHFR fusion (Arabidopsis thaliana); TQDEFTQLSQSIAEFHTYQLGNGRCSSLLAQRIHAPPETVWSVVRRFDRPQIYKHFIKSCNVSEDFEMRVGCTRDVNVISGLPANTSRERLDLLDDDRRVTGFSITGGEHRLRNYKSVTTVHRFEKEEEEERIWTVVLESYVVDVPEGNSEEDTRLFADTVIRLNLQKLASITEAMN
R46C: 101%
V40E: -26.1%
R45Y: 26.4%
R163G: 91.2%
P146R: 43.4%
F15A: 76.8%
V78T: 102%
D48Y: 57.4%
H122V: 70.4%
C60N: 38.3%
P146S: 81.4%
A170F: 19.4%
V70Y: 77.5%
P83R: 1.97%
R49C: 97.8%
F103G: -3.1%
Q2N: 102%
R69V: 100%
E67K: 99.8%
C25H: 69.2%
T6L: 106%
T1W: 95%
L28R: 96%

Study 3
Target: Interferon regulatory factor 3, full length, phosphomimetic (IRF3, Homo sapiens, UniProt Q14653, residues 1-427, S386D/S396D/S398D/S402D/T404D/S405D)
Method: protein-binding microarray
Form: double-stranded DNA, one strand shown
Matrix: in vitro
Concentration: 2540 nM top
Notes: 60-bp whole probe
With: salmon DNA 0.4 mg/ml
Baseline: random background probes
Reading: higher = stronger binding
Measurement: fitted relative affinity
All sequences stand within: GCCTAGCAC … GTCTTGATTCGCTTGACGCTGCTG
Target sequence (chain): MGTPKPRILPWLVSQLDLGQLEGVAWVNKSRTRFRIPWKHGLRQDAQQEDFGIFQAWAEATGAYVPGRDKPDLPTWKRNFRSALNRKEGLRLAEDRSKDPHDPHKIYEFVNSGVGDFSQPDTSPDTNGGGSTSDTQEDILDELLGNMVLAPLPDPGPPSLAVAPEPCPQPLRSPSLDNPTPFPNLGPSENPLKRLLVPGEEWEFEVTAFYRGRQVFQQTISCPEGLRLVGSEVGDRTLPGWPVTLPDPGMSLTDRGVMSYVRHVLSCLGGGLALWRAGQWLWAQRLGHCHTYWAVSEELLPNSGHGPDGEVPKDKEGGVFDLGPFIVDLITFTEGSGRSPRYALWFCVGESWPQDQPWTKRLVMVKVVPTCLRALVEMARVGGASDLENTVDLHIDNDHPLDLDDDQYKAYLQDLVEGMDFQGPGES
GACGGACTGGGTTTCGGGAGGTGCTAG: 0.541 z-score
GACGGTTTCGGACTGGAGACGTGCTAG: 4.86 z-score
TTAGCTCTCAGTATCGATTAGTGCTAG: 0.816 z-score
TCATGTTTCTTCTGCTGACTGTGCTAG: 0.581 z-score
GAATTTCCCACTTTCAGTTCGTGCTAG: 3.9 z-score
TCAGCTCTTTCGTTACTTACTGTGCTA: 1.74 z-score
GGGAACTTAAACCTCTAAAGGTGCTAG: -0.271 z-score
GACGATGCCAGTTTCGAGACGTGCTAG: 1.49 z-score
TCACCTCACAGTTTGTAACTGTGCTAG: 0.292 z-score
AGCCTGGCCAAGCTCACAGCGTGCTAG: -1.51 z-score
TCACCACTCCAGTTCTGACTGTGCTAG: 0.292 z-score
TCAACTCTGCCTCTAACACTGTGCTAG: 0.0359 z-score
CTCACCTCAGCCTCCCAAGTGTGCTAG: 0.212 z-score
TTATGTTTCGGGTATCGGTTAGTGCTA: 3.72 z-score
TCATTTCCCAACATCAGACTGTGCTAG: 2.87 z-score
GACGGCATCGGGTATCGGGACGTGCTA: -0.617 z-score
TTATAACTGGGGTATCGATTAGTGCTA: -0.0752 z-score
ATCTGCAGCTGACTACACACGTGCTAG: 0.0156 z-score
ATCTTTTTCCTAATTGAACCGTGCTAG: 3.78 z-score
TCACCTCTGTCATTTTCACTGTGCTAG: 0.521 z-score
GACGATTCCGGTTTCGGGACGTGCTAG: 4.37 z-score
TCATTTTTGTTGTTTTTACTGTGCTAG: 1.56 z-score
GACGGTTTCGGTTCCGCGACGTGCTAG: 10 z-score
TTATATTTCGGGTATCGATTAGTGCTA: 1.24 z-score

Study 4
Target: CRIPT, C-terminal peptide
Method: DHFR complementation, deep sequencing
Matrix: yeast
Notes: single substitutions, model-inferred values
Baseline: wild type
Reading: higher = weaker binding
Measurement: binding free energy change
Parent: ERBIN, PDZ domain 1 (human); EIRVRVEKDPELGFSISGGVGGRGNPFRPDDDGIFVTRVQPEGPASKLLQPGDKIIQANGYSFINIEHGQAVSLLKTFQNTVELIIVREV; partner TKNYKQTSV
L12M: 0.0815 kcal/mol
Q57L: 0.143 kcal/mol
G43D: 1.18 kcal/mol
V36D: 1.21 kcal/mol
K76G: 0.71 kcal/mol
R3M: -0.107 kcal/mol
P29E: -0.201 kcal/mol
I2D: 1.37 kcal/mol
G19P: 1.32 kcal/mol
V4D: 0.781 kcal/mol
L49V: -0.334 kcal/mol
E7Q: -0.172 kcal/mol
D31G: 1.13 kcal/mol
T37A: 0.369 kcal/mol
S46P: 0.789 kcal/mol
N25C: 0.939 kcal/mol
D32H: 0.333 kcal/mol
E1L: 0.256 kcal/mol
E7C: 0.0928 kcal/mol
D53K: 0.934 kcal/mol
I34T: 0.441 kcal/mol
F14M: -0.652 kcal/mol
V82F: 1.58 kcal/mol

Study 5
Target: FOSL1, bZIP domain (human)
Method: DHFR protein complementation
Matrix: yeast
Notes: single substitutions, most at no-binding floor
Baseline: wild-type JUN-FOS pair
Reading: higher = stronger binding
Measurement: binding fitness
Parent: JUN, bZIP domain (human); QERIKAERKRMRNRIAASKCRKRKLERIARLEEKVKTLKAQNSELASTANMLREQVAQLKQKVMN; partner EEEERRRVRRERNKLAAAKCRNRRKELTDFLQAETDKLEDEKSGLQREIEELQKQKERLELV
K39L: -0.928 natural log
K36M: -0.326 natural log
Q41F: -1.46 natural log
S43E: -0.281 natural log
A40M: -0.574 natural log
S43M: -0.357 natural log
R53T: -1.25 natural log
L31D: -1.37 natural log
I28G: -0.938 natural log
L31E: -1.21 natural log
R30F: -0.288 natural log
E44V: -0.436 natural log
R30D: -0.184 natural log
R30H: -0.253 natural log
Q41V: -0.511 natural log
R53A: -0.864 natural log
A29F: -0.602 natural log
E54K: -0.55 natural log
E33G: -0.733 natural log
N42P: -1.42 natural log
T37E: -0.271 natural log
V35F: -0.707 natural log
A46C: -0.785 natural log
Q58P: -1.34 natural log

Study 6
Target: Ras GTPase-activating protein-binding protein 1, full length (G3BP1, Homo sapiens, UniProt Q13283)
Sequence of UniProt Q13283 (whole entry, looked up): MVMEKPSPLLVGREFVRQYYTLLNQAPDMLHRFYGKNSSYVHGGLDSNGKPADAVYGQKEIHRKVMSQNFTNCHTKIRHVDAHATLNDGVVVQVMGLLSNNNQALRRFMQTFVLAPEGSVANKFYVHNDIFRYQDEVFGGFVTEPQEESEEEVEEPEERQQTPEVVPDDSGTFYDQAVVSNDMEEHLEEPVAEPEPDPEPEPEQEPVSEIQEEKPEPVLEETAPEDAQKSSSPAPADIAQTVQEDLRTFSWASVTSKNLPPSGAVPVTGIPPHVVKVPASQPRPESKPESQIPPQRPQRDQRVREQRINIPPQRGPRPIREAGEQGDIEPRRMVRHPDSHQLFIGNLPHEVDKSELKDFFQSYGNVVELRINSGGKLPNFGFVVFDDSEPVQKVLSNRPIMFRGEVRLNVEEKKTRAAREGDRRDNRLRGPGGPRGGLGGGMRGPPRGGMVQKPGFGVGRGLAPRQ
Method: RNA Bind-n-Seq
Form: RNA
Matrix: in vitro
Concentration: 200 nM
Notes: whole 134-nt RNA, ends assumed
With: 150 mM LiCl
Baseline: input library
Reading: higher = stronger binding
Measurement: log2 enrichment
Each molecule: 7-deaza-guanosine replaces G
All sequences stand within: GGGAGUUCUACAGUCCGACGAUC … UGGAAUUCUCGGGUGUCAAGG
CCUCAAGUCCUGUGCUACACAUCGUAUGUACCGAAUCGGCGGGCGGGCGGGGAAAGUAUUAUGUUACGCCGUUCGGAUCUGCACUUCCAG: 0.601
AGUCCUGUGCUACACAUCGUAUGUACCGAAUCGGAAAAAGGUUUUUUUGGUUUUUGGAAAGUAUUAUGUUACGCCGUUCGGAUCUGCACU: -3.24
UAACUUUAGAGGAGGAUCUGAUGGAUAUGGCAGUGGACGUGGAUUUGGGGAUGGCUAUAAUGGGUAUGGAGGAGGACCUGGAGGUGGCCA: -1.12
CAUCCUUUGGGCCCCUCAAGGCCUUCAACCUGGUCAAGGACAGUGCCACGGGGCUCUCCAAGGGCUACGCCUUCUGUGAGUACGUGGACA: -0.105
GCAGGAAGUAAAAACAAAUGGAAAUGCUUCGGAUAGUGGCAGGGGUGGGGGUUGCUAAGGAGAGGGUGGGAUGGGAGUGGGUAAAGAGUU: -0.000313
ACCAUGCAGGUGGGCAUCUUUGGGAAGUGGGGCAAGGGGGGGAUAGGGAGGGGGGUAACACUUUGAGAACAGGUGGUCCCAGGUCGUUUC: -0.129
UGGGAGGUGGAUUUUGUUUAUUUUUUUAGGUCAUUUCCAGGGGUGGGAAUUUUUUUUUAAUAUGUGUCAUGAAUAAAGUUGUUUUUGAAA: 0.0337
CACAGACAACACGCACCCACACAGACAUAGAGGGAAGGGGUUGGGAUGGGGACAGGGUGCACAGCAGGGCGGGGUAGGACCCCAGCCCCU: -0.188
AUGGAUGACCCCUCUGUGGGCCCCAAGAUCCCCCAGGCUUUGGAGAAGAUCCUGCAGCUGAAGGAGAGCCGCCAGGAAGAGAUGAAUUCU: 1.07
GCAGGAAGUAAAAACAAAUGGAAAUGCUUCGGAUAGUGGCAGGGGUGGGGGUUGCGAAGGAAAGGGUGGGAUGGGAGUGGGUAAAGAGUU: -0.32
CAAGUCCUGUGCUACACAUCGUAUGUACCGAAUCGGGGAAAGGAAAGGGAAAGGGAAAGUAUUAUGUUACGCCGUUCGGAUCUGCACUUC: -0.487

Repeated from above (study 5):
K39L: -0.928 natural log
Q41F: -1.46 natural log
A29F: -0.602 natural log
N42P: -1.42 natural log
E44V: -0.436 natural log
L31D: -1.37 natural log
R53A: -0.864 natural log
